# Published values from different studies.
# Lines come from different studies, so protocols differ. “And” joins repeats or separate records; there may be more than shown.
# rep main protease: Replicase polyprotein 1ab, main protease (rep, Severe acute respiratory syndrome coronavirus 2, UniProt P0DTD1)
Substance,target or system,test,system,setting,scale,quantity,result
FCOC(C(F)(F)F)C(F)(F)F,SARS-CoV-2,viral replication,Huh-7,,,IC50,> 2 µM
COC(=O)[C@@H](Cc1ccc(O)c(O)c1)OC(=O)/C=C/c1ccc(O)c(O)c1,rep main protease,"reporter gene (mKate2), inhibitor",HEK293T,20 µM,,inhibition,0.886%
Cc1oc(-c2ccccc2)nc1CCC(=O)c1ccc(CC2SC(=O)NC2=O)cc1 (stereo not shown),SARS-CoV-2,,Vero C1008,,baseline: CC50 over EC50,selectivity index,6.47
COc1ccc(C(CN(C)C)C2(O)CCCCC2)cc1 (stereo not shown),SARS-CoV-2,"viral replication, anti-nucleoprotein immunostaining",Vero E6,,,IC50,> 10 µM
O=C1c2c(O)cccc2Cc2cccc(O)c21,SARS-CoV-2,"viral replication, GFP plate reader screen",,cell-based,,EC50,> 100 µM
COc1cc(C2C(C#N)=C(N)Oc3c2c(C)nn3-c2ccc(Cl)cc2)cc(OC)c1OC (stereo not shown),SARS-CoV-2,,Vero C1008,10 µM,baseline: positive control,viral titre log reduction,0.651 log10
CC[C@H](C)[C@H](NC(=O)[C@H](CC(C)C)NC(=O)[C@H](Cc1c[nH]c2ccccc12)NC(=O)[C@H](CCC(N)=O)NC(=O)[C@@H](NC(=O)[C@H](Cc1ccccc1)NC(=O)[C@H](C)NC(=O)[C@H](CCCCNC(=O)COCCOCCNC(=O)COCCOCCNC(=O)CC[C@H](NC(=O)CCCCCCCCCCCCCCCCCCC(=O)O)C(=O)O)NC(=O)[C@H](CCC(N)=O)NC(=O)[C@H](C)NC(=O)[C@@H](NC(=O)[C@H](CCCCN)NC(=O)[C@H](CC(=O)O)NC(=O)[C@H](CC(C)C)NC(=O)C(C)(C)NC(=O)[C@@H](NC(=O)[C@H](CO)NC(=O)[C@H](Cc1ccc(O)cc1)NC(=O)[C@H](CC(=O)O)NC(=O)[C@H](CO)NC(=O)[C@@H](NC(=O)[C@H](Cc1ccccc1)NC(=O)[C@@H](NC(=O)CNC(=O)[C@H](CCC(=O)O)NC(=O)C(C)(C)NC(=O)[C@@H](N)Cc1ccc(O)cc1)[C@@H](C)O)[C@@H](C)O)[C@@H](C)CC)[C@@H](C)CC)C(C)C)C(=O)N[C@@H](C)C(=O)NCC(=O)NCC(=O)N1CCC[C@H]1C(=O)N[C@@H](CO)C(=O)N[C@@H](CO)C(=O)NCC(=O)N[C@@H](C)C(=O)N1CCC[C@H]1C(=O)N1CCC[C@H]1C(=O)N1CCC[C@H]1C(=O)N[C@@H](CO)C(N)=O,,item: treatment-emergent back pain,healthy subjects,"1.5 mg, multiple ascending dose",,subjects with adverse event,0%
CN(c1nc2ccccc2s1)C1CCN(CC(O)COc2ccc(F)cc2)CC1 (stereo not shown),SARS-CoV-2,"viral replication, high-content imaging screen",,cell-based,,EC50,> 100 µM
O=c1[nH]c(=O)n([C@H]2C[C@H](O)[C@@H](CO)O2)cc1/C=C/Br,SARS-CoV-2,,Vero E6,"concentration not given, NYC laboratory",,viral replication inhibition,inactive
Clc1ccc2nc(N3CCC(NCCc4cccnc4)CC3)sc2c1,SARS-CoV-2,cytopathic effect,USA_WA1/2020,"round 2, 5-point",,efficacy,101%
Cc1nn(-c2ccc(Cl)cc2)c2c1C(c1ccc(-c3ccccc3)cc1)C(C#N)=C(N)O2 (stereo not shown),SARS-CoV-2,"RT-qPCR, item: viral RNA",Vero,1 µM,higher means less virus,Ct value,24.1 cycles
c1ccc(C(c2ccccc2)N2CCN(CCCC3(c4ccccc4)OCCO3)CC2)cc1,SARS-CoV-2,"viral replication, GFP plate reader screen",,cell-based,,EC50,> 20 µM
CCN(CC)CCNC(=O)c1cc(-c2ccc(Br)s2)nc2ccccc12,SARS-CoV-2,cytopathic effect,USA_WA1/2020,"retest, 8-point, duplicates",,efficacy,95.2%
O=C(/C=C/c1ccc(O)c(O)c1/C=C/c1ccc(O)c(O)c1)O[C@H](Cc1ccc(O)c(O)c1)C(=O)O,SARS-CoV-2,viral replication,Vero E6,25 µM,,CPE inhibition,0%
COc1ccc2c(Sc3ccc(Cl)cc3)c(C(=O)NCCCN3CCCCC3)[nH]c2c1,SARS-CoV-2,"cytopathic effect, cell-based CPE",USA_WA1/2020,,,AC50,14.1 µM
C#C[C@]1(O)CC[C@H]2[C@@H]3CCc4cc(OC5CCCC5)ccc4[C@H]3CC[C@@]21C,SARS-CoV-2,viral replication,Huh-7,,,IC50,> 2 µM
Cc1ncc(NC(=O)c2ccc(CN3CCN(C)CC3)c(C(F)(F)F)c2)cc1Nc1nccc(-c2cccnc2)n1,SARS-CoV-2,viral replication,"Vero E6, USA-WA1/2020",2.5 µM,,inhibition,42.4%
CC(C)(C)c1ccc(C(O)CCCN2CCC(C(O)(c3ccccc3)c3ccccc3)CC2)cc1 (stereo not shown),rep main protease,"reporter gene (mKate2), inhibitor",,20 µM,,inhibition,-1.59%
Atovaquone,SARS-CoV-2,viral replication,Huh-7,,,IC50,> 2 µM
Cc1nn(-c2ccc(Cl)cc2)c2c1C(c1ccc(I)cc1)C(C#N)=C(N)O2 (stereo not shown),SARS-CoV-2,,Vero C1008,1 µM,baseline: positive control,viral titre log reduction,0.0335 log10
CC(=O)NC1(c2ccccc2)CCN(CC[C@H](CN(C)C(=O)c2ccccc2)c2ccc(Cl)c(Cl)c2)CC1,SARS-CoV-2,"viral replication, high-content imaging screen",BetaCov/Belgium/GHB-03021/2020,cell-based,,EC50,> 100 µM
Nc1ncnc2c([C@@H]3N[C@H](CO)[C@@H](O)[C@H]3O)c[nH]c12,Marburg virus,viral replication,"HeLa, Angola",12.5 µM,,inhibition,90.4%
CC(C)=CCc1c(O)ccc(C(=O)/C=C/c2ccc(O)cc2)c1O,SARS-CoV-2,viral replication,Vero E6,0.7812 µM,,CPE inhibition,0%
CNC(=O)[C@@H](NC(=O)[C@H](CC(C)C)[C@H](O)C(=O)NO)C(C)(C)C,snake venom metalloproteinase,"proteolytic activity, inhibitor","Daboia russelii, venom AP",with: azocasein,,IC50,1.99 µM and 1.93 µM and 1.95 µM
Cc1ccc(NS(=O)(=O)c2cccc(C(=O)NC3CCN(c4ncnc5[nH]cnc45)CC3)c2)cc1,SARS-CoV-2,,"A549-ACE2, Wuhan-Hu-1",0.2743 µM,baseline: untreated,relative infection,89.2%
COc1ccc2c(c1)c(CC(=O)O)c(C)n2C(=O)c1ccc(Cl)cc1,SARS-CoV-2,,Vero E6,"concentration not given, NYC laboratory",,viral replication inhibition,inactive
COc1ccc(C#Cc2ccccc2)c(CCC(C)N(C)CCc2ccc(OC)c(OC)c2)c1 (stereo not shown),SARS-CoV-2,"viral replication, high-content imaging screen",BetaCov/Belgium/GHB-03021/2020,cell-based,,EC50,> 100 µM
CN(CCc1ccc(Cl)c(Cl)c1)CCN1CCCC1,SARS-CoV-2,,,"concentration not given, Paris laboratory",,viral replication inhibition,inactive
O=C(NCCN1CCCCC1)c1ccc(-c2ccc(N3CCSCC3)nc2)cc1,SARS-CoV-2,"cytopathic effect, cell-based CPE",USA_WA1/2020,"round 2, 5-point dilution",,AC50,12.6 µM
C[C@@H]1CN(c2ncc(C(O)CO)cc2Cl)CCN1c1nc2c(-c3cc(F)c(F)c(F)c3)cc(C(F)(F)F)cc2[nH]1 (stereo partly shown),SARS-CoV-2,viral replication,"293T-ACE2, USA-WA1/2020",,,EC90,> 2.5 µM
Cc1ccccc1NC(=N)Nc1ccccc1C,SARS-CoV-2,"viral replication, anti-nucleoprotein immunostaining",Vero E6,,,IC50,> 10 µM
Cc1nn(-c2ccc(Cl)cc2)c2c1C(c1ccc(Cl)cc1Cl)C(C#N)=C(N)O2 (stereo not shown),SARS-CoV-2,,Vero C1008,10 µM,baseline: positive control,viral titre log reduction,0.485 log10
Cn1cnc(Cn2c(=O)[nH]/c(=N\c3cc4cn(C)nc4cc3Cl)n(Cc3cc(F)c(F)cc3F)c2=O)n1,,,"human, all renal function groups","oral, 375 mg, decreased GFR TEAE, Moderate severity",,patients with adverse event,3.1%
Cn1ccc(S(=O)(=O)N2CCCC(Nc3nccc(-c4c(-c5cccc(OCOP(=O)(O)O)c5)nc5occn45)n3)C2)n1 (stereo not shown),SARS-CoV-2,viral replication,"Vero E6, USA-WA1/2020",2.5 µM,,inhibition,56.8%
COc1ccc2[nH]c(C(O)c3ccc(Cl)cc3)c(CCNC(C)=O)c2c1 (stereo not shown),SARS-CoV-2,"viral replication, FISH-Flow dsRNA staining",Vero C1008 (VeroE6),1 µM,,antiviral activity,inactive
COc1ccc(Nc2cc(C(=O)NCCCN3CCN(c4ccccc4F)CC3)c3ccccc3n2)c(OC)c1,SARS-CoV-2,cytopathic effect,USA_WA1/2020,"round 2, 5-point",,maximum response,42.8%
CN(C)CCC(c1ccc(Cl)cc1)c1ccccn1 (stereo not shown),SARS-CoV-2,"viral replication, RT-qPCR",A549 expressing ACE2,,,IC50,> 10 µM
CC(C)(C)[C@H](NC(=O)C(F)(F)F)C(=O)N1C[C@H]2[C@@H]([C@H]1C(=O)N[C@H](C#N)C[C@@H]1CCNC1=O)C2(C)C,SARS-CoV-2,"viral replication, infectious virus",Vero E6,0.0156 µM,,inhibition,30.1%
CC1CCN(CCCC(=O)c2ccc(F)cc2)CC1,SARS-CoV-2,viral replication,A549 expressing ACE2,inactive set pIC50 4,,IC50,> 10 µM
CC(C)N1CCN(c2ccc(OCC3COC(Cn4cncn4)(c4ccc(Cl)cc4Cl)O3)cc2)CC1 (stereo not shown),SARS-CoV-2,"viral replication, GFP plate reader screen",,cell-based,,EC50,16.6 µM
COc1ccc(C[C@@H]2c3cc(Oc4cc(C[C@@H]5c6cc(O)c(OC)cc6CCN5C)ccc4O)c(OC)cc3CCN2C)cc1,SARS-CoV-2,viral replication,Vero E6,1.562 µM,baseline: mean of replicates,CPE inhibition,0%
CC(C)(C)c1cc(O)ccc1O,SARS-CoV-2,viral replication,Huh-7,,,IC50,> 2 µM
CN1CCCN(C(c2ccccc2)c2ccc(Cl)cc2)CC1 (stereo not shown),SARS-CoV-2,"viral replication, GFP plate reader screen",,cell-based,,EC50,> 20 µM
O=C(CCc1ccc(CC2CCN(Cc3c[nH]c4ccccc34)CC2)cc1)N1CCCC1,SARS-CoV-2,"cytopathic effect, cell-based CPE",USA_WA1/2020,"round 2, 5-point dilution",,AC50,12.6 µM
O=C(O[C@@H]1Cc2c(O)cc(O)cc2O[C@@H]1c1cc(O)c(O)c(O)c1)c1cc(O)c(O)c(O)c1,SARS-CoV-2,cytopathic effect,Vero E6,"6.25 µM, replicate run",,mean inhibition,0%
CNCCN(C)c1nc(NC(C)c2ccccc2)c2ccccc2n1 (stereo not shown),SARS-CoV-2,cytopathic effect,USA_WA1/2020,retest 8-point,,efficacy,81.8%
CC(C1CCCCC1)n1c(-c2cc3c(cc2Br)OCO3)nc2cc(C(=O)Nc3ccc(C#N)cc3)ccc21 (stereo not shown),SARS-CoV-2,,Vero E6,concentration not given,,viral inhibition,inactive
CCCCNC(=O)C1CCCN(Cc2nc(-c3ccc(Cl)cc3)oc2C)C1 (stereo not shown),SARS-CoV-2,cytopathic effect,USA_WA1/2020,"retest, 8-point, duplicates",,efficacy,20%
COc1cc(/C=C/C(=O)N2CCC=CC2=O)cc(OC)c1OC,SARS-CoV-2,"viral replication, high-content imaging screen",BetaCov/Belgium/GHB-03021/2020,cell-based,,EC50,> 50.1 µM
